Assay results gathered from unrelated publications.
Each line is one published result; not all experiments were run side by side. ± gives the spread as reported.

Structure (SMILES)	test	test system	setting	how to read	endpoint	result
CCCC[C@H](NC(=O)[C@@H](NC(=O)[C@H](CC(=O)O)NC(=O)[C@H](CCC(N)=O)NC(=O)[C@H](CC(C)C)NC(=O)[C@H](CC(C)C)NC(=O)[C@H](CCCN)NC(=O)[C@H](CCCNC(=N)N)NC(=O)[C@H](C)NC(=O)[C@H](CO)NC(=O)[C@H](CC(C)C)NC(=O)[C@H](CCC(N)=O)NC(=O)[C@H](CC)NC(=O)[C@H](CC(C)C)NC(=O)[C@@H](NC(=O)[C@H](CCCN)NC(=O)[C@H](CCCNC(=N)N)NC(=O)[C@H](Cc1ccc(O)cc1)NC(=O)[C@H](CO)NC(=O)[C@H](CC(N)=O)NC(=O)[C@@H](NC(=O)[C@H](Cc1c(F)c(F)c(F)c(F)c1F)NC(=O)[C@@H](NC(=O)[C@H](C)NC(=O)[C@H](CC(=O)O)NC(=O)[C@@H](C)NC(=O)CCc1ccc(O)cc1)[C@@H](C)CC)[C@@H](C)O)C(C)C)[C@@H](C)CC)C(=O)N[C@@H](CO)C(=O)N[C@@H](CCCNC(=N)N)C(=O)NCCCC(N)=O	GH release, ELISA	male rat, anaesthetised, serum	intravenous, 1 µg/kg, 0 min		serum GH level	59.9 ± 15.9 ng/mL
Cc1ccc(C(=O)Nc2ccc(CP(=O)(O)O)cc2CP(=O)(O)O)cc1NC(=O)c1cccc(NC(=O)Nc2cccc(C(=O)Nc3cc(C(=O)Nc4ccc(CP(=O)(O)O)cc4CP(=O)(O)O)ccc3C)c2)c1		human plasma	282 µM		APTT	45.4 ± 7.2 s
CC[C@H]1[C@@H](O)[C@@H]2[C@H](CC[C@]3(C)[C@@H]([C@H](C)CCOS(=O)(=O)[O-])CC[C@@H]23)[C@@]2(C)CC[C@@H](O)C[C@@H]12.[Na+]	histology	ob/ob NASH mouse model, liver	oral, 3 mg/kg once daily, 8 weeks, scale 0 to 2	direction not given	ballooning score	0.7 ± 0.1
Cc1cc(Nc2cc3ncccc3c(N[C@@H]3C[C@H]4CC[C@@H](C3)N4CCC#N)n2)n[nH]1	measured: rectal bleeding	human, moderate to severe ulcerative colitis	20 mg, day 28		patients with improvement	30%
C=C(c1ccc(C(=O)O)c(F)c1)c1cc2c(cc1C)C(C)(C)C=CC2(C)C	RNA sequencing, measured: Rbp1	rat, brain	dose not given, 24 h	relative to: vehicle	log2 fold change	-0.63
O=c1c(OCc2ccccc2)c(-c2ccc(Cl)cc2)oc2ccccc12		diabetic rat	5 mg/kg, 28 days, p-nitrophenyl β-glucoside induced		serum LDL cholesterol	125 ± 3.91 mg/dL
O=C(CN1CCC(O)CC1)Nc1nccs1			0.1 mM, 1 h		DPPH radical scavenging	24.6%
O=C(OC(C(F)(F)F)C(F)(F)F)N1CCC(CNS(=O)(=O)c2ccc(Cl)cc2)CC1		OF1 mouse PBQ writhing	oral, 1 and 3 mg/kg, 60 min before test		writhing response	decreased
COc1ccc(C2CC(c3ccc(C)cc3)=Nc3ccccc3S2)cc1 (stereo not shown)		rat, normal, overnight fasted	oral, 10 mg/kg, 90 min, oral glucose tolerance test, together with: glucose 3 g/kg oral		blood glucose	116 ± 4.01 mg/dL
CCCCCCCOC(=O)Cc1c(C)n(C(=O)c2ccc(Cl)cc2)c2ccc(OC)cc12		BALB/c mice, acetic acid writhing	intraperitoneal, 10 mg/kg, 20 min count		writhing count	20.2 ± 1.49
COc1c2c(cc3oc(C)cc(=O)c13)O[C@H](C(C)(C)O[C@@H]1O[C@H](CO)[C@@H](O)[C@H](O)[C@H]1O)C2	analgesic effect	Kunming mouse, female	oral, 2 mg/kg, 0 h, 55 °C, before dosing, 30 s cut-off		hot plate latency	8.88 ± 1.35 s
CN(C)c1ccc(-c2oc3ccccc3c(=O)c2OCc2ccccc2)cc1		diabetic rat	5 mg/kg, p-nitrophenyl β-glucoside induced		serum alkaline phosphatase	197 ± 4.11 IU
COC(=O)C1C(c2nc3cc(OC)ccc3[nH]2)=Cc2cc3c(cc2C1c1cc(OC)c(OC)c(OC)c1)OCO3 (stereo not shown)	Alamar Blue	splenocytes, mouse		relative to: CC50 splenocytes over EC50 amastigotes	selectivity index	> 13.7
CN1CCC[C@]1(C)/C=C/S(=O)(=O)NC(=O)Nc1c2c(cc3c1CCC3)CCC2	measured: IL-1β	human, whole blood ex vivo	oral, dose not given, single ascending dose, together with: LPS and ATP		inhibition	> 90%
COc1cc(C(=O)OCCCN2CCCN(CCCOC(=O)c3cc(OC)c(OC)c(OCc4ccc([N+](=O)[O-])cc4)c3)CC2)cc(OC)c1OC		mouse, STZ diabetic neuropathy	sc, 3 x 30 mg/kg		neuropathic pain	decreased
Cc1ccc(-c2oc3ccccc3c(=O)c2OCc2ccccc2)cc1		diabetic rat	7.5 mg/kg, p-nitrophenyl β-glucoside induced		serum alanine aminotransferase	33.8 ± 2.43 IU
CCCC[C@H](NC(=O)[C@@H](NC(=O)[C@H](CC(=O)O)NC(=O)[C@H](CCC(N)=O)NC(=O)[C@H](CC(C)C)NC(=O)[C@H](CC(C)C)NC(=O)[C@H](CCCN)NC(=O)[C@H](CCCNC(=N)N)NC(=O)[C@H](C)NC(=O)[C@H](CO)NC(=O)[C@H](CC(C)C)NC(=O)[C@H](CCC(N)=O)NC(=O)[C@H](CC)NC(=O)[C@H](CC(C)C)NC(=O)[C@@H](NC(=O)[C@H](CCCN)NC(=O)[C@H](CCCNC(=N)N)NC(=O)[C@H](Cc1ccc(O)cc1)NC(=O)[C@H](CO)NC(=O)[C@H](CC(N)=O)NC(=O)[C@@H](NC(=O)[C@H](Cc1ccccc1)NC(=O)[C@@H](NC(=O)[C@H](C)NC(=O)[C@H](CC(=O)O)NC(=O)[C@@H](C)NC(=O)[C@H](Cc1ccc(O)cc1)NC)[C@@H](C)CC)[C@@H](C)O)C(C)C)[C@@H](C)CC)C(=O)N[C@@H](CC(=O)O)C(=O)N[C@@H](CCCNC(=N)N)C(=O)NCC	GH release, ELISA	male Sprague-Dawley rat, anaesthetised, serum	subcutaneous, 3 µg/kg, 0 min		serum GH level	44 ± 8.9 ng/mL
CCCCCCCCCCCCCCCC(=O)N[C@@H](CCC(=O)NCCCC[C@H](NC(=O)[C@H](CC(=O)O)NC(=O)[C@H](CO)NC(=O)[C@@H](NC(=O)[C@H](Cc1ccccc1)NC(=O)[C@@H](NC(=O)CNC(=O)[C@H](CCC(N)=O)NC(=O)[C@H](CO)NC(=O)[C@@H](N)Cc1c[nH]cn1)[C@@H](C)O)[C@@H](C)O)C(=O)N[C@@H](CO)C(=O)N[C@@H](CCC(=O)O)C(=O)N[C@@H](Cc1ccc(O)cc1)C(=O)N[C@@H](CC(C)C)C(=O)N[C@@H](CC(=O)O)C(=O)N[C@@H](CO)C(=O)N[C@@H](CCC(=O)O)C(=O)N[C@@H](CCCNC(=N)N)C(=O)N[C@@H](C)C(=O)N[C@@H](CCCNC(=N)N)C(=O)N[C@@H](CC(=O)O)C(=O)N[C@@H](Cc1ccccc1)C(=O)N[C@H](C(=O)N[C@@H](C)C(=O)N[C@@H](Cc1c[nH]c2ccccc12)C(=O)N[C@@H](CC(C)C)C(=O)N[C@@H](CCC(=O)O)C(=O)N[C@@H](C)C(=O)NCC(=O)NCC(=O)O)C(C)C)C(=O)O		male cynomolgus monkey	subcutaneous, 16 nmol/kg/day for 8 weeks, day 57	relative to: starting body weight	body weight loss	7%
Cc1ncc([N+](=O)[O-])n1CCOCc1nnc(SCC(=O)c2ccc(Cl)cc2)o1			50 µg/mL, 45 min		DPPH scavenging	37.1 ± 0.7%
COc1ccc2c(c1)c(CC(=O)OCOC(C)=O)c(C)n2C(=O)c1ccc(Cl)cc1	acetic acid writhing test	BALB/c mouse	intraperitoneal, 30 mg/kg	relative to: negative control	analgesia	86.2%
COC(=O)c1ccc(-n2nc(C(F)(F)F)cc2-c2cc(OC)c(OC)c(OC)c2)cc1	tubulin polymerisation, inhibitor, absorbance				IC50	39 µM
COc1ccc2c(c1)c(CC(=O)OCC(=O)c1ccccc1)c(C)n2C(=O)c1ccc(Cl)cc1	acetic acid writhing test	BALB/c mouse	intraperitoneal, 10 mg/kg	relative to: negative control	analgesia	59.5%
COc1cc(Cn2ccc3cc(C(=O)NCC45CC6CC(CC(C6)C4)C5)ccc32)ccc1C(=O)NO	immunohistochemistry, measured: amyloid-beta	5xFAD mouse, brain	intraperitoneal, 10 mg/kg once daily, 2 months	relative to: vehicle	amyloid-positive area	decreased
CCCOC(=O)Cc1c(C)n(C(=O)c2ccc(Cl)cc2)c2ccc(OC)cc12	acetic acid writhing test	BALB/c mouse	intraperitoneal, 30 mg/kg	relative to: negative control	analgesia	80%
O=C(C=Cc1ccc(O)c(O)c1)OC1CC(O)(C(=O)O)CC(O)C1OC(=O)C=Cc1ccc(O)c(O)c1 (stereo not shown)	decreased	Kunming mice, isoprenaline-induced myocardial infarction, serum	intravenous, 30 mg/kg daily for 7 days, day 7	relative to: model group	creatine kinase activity	decreased

Some of these lines once more:
Structure (SMILES)	test	test system	setting	how to read	endpoint	result
O=C(C=Cc1ccc(O)c(O)c1)OC1CC(O)(C(=O)O)CC(O)C1OC(=O)C=Cc1ccc(O)c(O)c1 (stereo not shown)	decreased	Kunming mice, isoprenaline-induced myocardial infarction, serum	intravenous, 30 mg/kg daily for 7 days, day 7	relative to: model group	creatine kinase activity	decreased
COC(=O)c1ccc(-n2nc(C(F)(F)F)cc2-c2cc(OC)c(OC)c(OC)c2)cc1	tubulin polymerisation, inhibitor, absorbance				IC50	39 µM
COc1ccc(C2CC(c3ccc(C)cc3)=Nc3ccccc3S2)cc1 (stereo not shown)		rat, normal, overnight fasted	oral, 10 mg/kg, 90 min, oral glucose tolerance test, together with: glucose 3 g/kg oral		blood glucose	116 ± 4.01 mg/dL
Cc1cc(Nc2cc3ncccc3c(N[C@@H]3C[C@H]4CC[C@@H](C3)N4CCC#N)n2)n[nH]1	measured: rectal bleeding	human, moderate to severe ulcerative colitis	20 mg, day 28		patients with improvement	30%
